Published values pooled from the literature.
Lines come from different studies, so protocols differ. ± gives the spread as reported.
RIPK2: Receptor-interacting serine/threonine-protein kinase 2 (RIPK2, Homo sapiens, UniProt O43353)
UniProt O43353, sequence (whole entry, looked up): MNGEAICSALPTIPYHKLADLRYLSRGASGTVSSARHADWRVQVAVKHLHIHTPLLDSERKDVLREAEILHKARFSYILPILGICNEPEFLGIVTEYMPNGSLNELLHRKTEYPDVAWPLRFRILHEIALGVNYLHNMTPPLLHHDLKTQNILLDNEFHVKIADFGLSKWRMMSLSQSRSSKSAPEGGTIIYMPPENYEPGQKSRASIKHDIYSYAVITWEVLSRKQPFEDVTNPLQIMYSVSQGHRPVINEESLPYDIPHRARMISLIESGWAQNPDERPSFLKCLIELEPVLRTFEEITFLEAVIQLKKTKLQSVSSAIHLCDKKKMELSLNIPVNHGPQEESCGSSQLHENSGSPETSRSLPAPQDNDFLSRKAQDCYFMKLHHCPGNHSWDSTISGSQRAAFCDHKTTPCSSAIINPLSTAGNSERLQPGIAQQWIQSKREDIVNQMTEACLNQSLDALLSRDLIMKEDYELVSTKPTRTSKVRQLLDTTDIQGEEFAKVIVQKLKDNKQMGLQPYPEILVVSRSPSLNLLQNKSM
UniProt Q92947, sequence (whole entry, looked up): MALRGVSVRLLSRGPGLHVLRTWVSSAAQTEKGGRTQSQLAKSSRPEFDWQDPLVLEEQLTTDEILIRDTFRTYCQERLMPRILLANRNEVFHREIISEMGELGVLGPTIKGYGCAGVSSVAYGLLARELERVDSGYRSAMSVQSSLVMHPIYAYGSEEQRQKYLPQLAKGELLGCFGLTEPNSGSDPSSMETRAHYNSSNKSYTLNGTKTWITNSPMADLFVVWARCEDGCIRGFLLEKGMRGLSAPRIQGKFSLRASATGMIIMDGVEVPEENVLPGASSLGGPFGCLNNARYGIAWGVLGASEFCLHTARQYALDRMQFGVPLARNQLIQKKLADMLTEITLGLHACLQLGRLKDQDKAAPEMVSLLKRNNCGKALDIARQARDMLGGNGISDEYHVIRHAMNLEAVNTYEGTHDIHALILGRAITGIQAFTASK
UniProt P54764, sequence (whole entry, looked up): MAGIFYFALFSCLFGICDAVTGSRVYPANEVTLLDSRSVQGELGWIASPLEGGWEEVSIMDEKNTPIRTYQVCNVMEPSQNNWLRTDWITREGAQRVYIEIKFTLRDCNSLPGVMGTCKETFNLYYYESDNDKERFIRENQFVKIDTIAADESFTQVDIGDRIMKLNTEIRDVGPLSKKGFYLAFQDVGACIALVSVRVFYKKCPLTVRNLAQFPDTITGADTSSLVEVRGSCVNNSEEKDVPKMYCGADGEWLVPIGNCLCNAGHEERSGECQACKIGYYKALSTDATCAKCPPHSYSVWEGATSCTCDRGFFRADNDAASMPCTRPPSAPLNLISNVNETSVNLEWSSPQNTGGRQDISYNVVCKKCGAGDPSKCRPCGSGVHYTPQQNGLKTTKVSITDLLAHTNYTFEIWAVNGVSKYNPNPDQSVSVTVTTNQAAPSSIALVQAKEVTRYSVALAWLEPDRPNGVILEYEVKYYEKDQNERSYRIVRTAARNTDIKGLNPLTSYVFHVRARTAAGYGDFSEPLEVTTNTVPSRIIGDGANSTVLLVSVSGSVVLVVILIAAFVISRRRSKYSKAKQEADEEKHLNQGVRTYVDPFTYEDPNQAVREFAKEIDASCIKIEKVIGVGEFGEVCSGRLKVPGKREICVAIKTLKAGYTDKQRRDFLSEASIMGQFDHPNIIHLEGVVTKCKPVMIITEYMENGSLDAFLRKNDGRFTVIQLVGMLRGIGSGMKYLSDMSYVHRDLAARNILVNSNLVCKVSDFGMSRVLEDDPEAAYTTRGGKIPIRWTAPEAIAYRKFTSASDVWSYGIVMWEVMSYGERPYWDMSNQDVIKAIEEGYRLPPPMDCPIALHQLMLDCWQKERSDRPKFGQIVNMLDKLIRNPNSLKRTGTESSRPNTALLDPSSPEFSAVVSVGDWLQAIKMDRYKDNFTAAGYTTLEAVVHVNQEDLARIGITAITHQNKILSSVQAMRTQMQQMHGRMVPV
UniProt Q13163, sequence (whole entry, looked up): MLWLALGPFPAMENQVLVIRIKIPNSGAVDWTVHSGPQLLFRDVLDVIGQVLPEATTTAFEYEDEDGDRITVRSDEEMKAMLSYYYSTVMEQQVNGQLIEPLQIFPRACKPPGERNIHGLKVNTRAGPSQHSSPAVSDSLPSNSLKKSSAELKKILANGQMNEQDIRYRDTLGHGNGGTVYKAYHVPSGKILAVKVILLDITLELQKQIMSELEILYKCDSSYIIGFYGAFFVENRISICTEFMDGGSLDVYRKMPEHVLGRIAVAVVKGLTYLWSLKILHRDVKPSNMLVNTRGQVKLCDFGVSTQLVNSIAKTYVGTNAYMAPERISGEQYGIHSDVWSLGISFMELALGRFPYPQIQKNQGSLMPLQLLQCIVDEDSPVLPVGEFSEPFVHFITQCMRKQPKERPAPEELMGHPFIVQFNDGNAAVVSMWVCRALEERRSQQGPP
UniProt P22310, sequence (whole entry, looked up): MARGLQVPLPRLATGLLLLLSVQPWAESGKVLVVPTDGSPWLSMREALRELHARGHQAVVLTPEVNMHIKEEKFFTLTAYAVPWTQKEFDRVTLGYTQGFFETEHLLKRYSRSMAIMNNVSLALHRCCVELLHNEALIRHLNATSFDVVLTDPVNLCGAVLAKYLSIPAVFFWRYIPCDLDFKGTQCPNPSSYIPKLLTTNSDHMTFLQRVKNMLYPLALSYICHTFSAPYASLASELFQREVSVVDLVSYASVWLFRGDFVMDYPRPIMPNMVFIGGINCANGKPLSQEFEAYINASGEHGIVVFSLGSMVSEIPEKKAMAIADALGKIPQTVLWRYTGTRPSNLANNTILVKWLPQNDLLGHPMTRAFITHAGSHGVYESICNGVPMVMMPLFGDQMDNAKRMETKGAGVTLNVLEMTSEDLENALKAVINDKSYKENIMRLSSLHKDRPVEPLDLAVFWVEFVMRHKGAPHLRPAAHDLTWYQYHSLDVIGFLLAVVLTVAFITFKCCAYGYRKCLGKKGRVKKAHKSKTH
UniProt Q9UQM7, sequence (whole entry, looked up): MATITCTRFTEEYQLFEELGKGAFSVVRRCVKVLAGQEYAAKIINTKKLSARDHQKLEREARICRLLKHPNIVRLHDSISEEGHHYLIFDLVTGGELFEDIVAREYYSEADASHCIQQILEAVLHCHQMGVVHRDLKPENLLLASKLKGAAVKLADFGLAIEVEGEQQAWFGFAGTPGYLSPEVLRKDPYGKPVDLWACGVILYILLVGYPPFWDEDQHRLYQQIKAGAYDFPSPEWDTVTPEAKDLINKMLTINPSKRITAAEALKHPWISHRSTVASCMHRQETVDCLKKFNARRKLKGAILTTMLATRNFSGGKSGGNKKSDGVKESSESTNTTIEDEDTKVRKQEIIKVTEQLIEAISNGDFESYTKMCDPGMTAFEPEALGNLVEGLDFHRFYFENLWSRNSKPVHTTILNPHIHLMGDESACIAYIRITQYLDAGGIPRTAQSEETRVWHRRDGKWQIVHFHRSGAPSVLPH
UniProt P48067, sequence (whole entry, looked up): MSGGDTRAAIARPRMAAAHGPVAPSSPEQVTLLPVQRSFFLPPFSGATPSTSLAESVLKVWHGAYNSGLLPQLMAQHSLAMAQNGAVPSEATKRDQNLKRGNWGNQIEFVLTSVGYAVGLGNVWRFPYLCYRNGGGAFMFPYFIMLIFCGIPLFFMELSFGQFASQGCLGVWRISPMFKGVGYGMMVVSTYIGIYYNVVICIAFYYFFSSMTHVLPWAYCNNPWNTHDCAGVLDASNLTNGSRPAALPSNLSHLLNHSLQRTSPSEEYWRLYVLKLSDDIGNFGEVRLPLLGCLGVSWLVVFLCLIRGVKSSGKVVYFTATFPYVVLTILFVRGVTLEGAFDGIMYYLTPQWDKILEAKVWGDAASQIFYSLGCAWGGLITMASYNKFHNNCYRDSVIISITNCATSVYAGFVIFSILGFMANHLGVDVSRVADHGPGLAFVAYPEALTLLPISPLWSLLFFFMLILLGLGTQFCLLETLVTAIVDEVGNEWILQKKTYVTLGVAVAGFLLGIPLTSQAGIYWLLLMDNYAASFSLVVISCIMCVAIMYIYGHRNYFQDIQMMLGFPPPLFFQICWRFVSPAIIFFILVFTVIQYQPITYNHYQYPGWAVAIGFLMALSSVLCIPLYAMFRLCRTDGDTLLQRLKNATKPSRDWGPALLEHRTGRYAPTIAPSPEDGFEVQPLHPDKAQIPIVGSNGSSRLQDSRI
UniProt Q7KZI7, sequence (whole entry, looked up): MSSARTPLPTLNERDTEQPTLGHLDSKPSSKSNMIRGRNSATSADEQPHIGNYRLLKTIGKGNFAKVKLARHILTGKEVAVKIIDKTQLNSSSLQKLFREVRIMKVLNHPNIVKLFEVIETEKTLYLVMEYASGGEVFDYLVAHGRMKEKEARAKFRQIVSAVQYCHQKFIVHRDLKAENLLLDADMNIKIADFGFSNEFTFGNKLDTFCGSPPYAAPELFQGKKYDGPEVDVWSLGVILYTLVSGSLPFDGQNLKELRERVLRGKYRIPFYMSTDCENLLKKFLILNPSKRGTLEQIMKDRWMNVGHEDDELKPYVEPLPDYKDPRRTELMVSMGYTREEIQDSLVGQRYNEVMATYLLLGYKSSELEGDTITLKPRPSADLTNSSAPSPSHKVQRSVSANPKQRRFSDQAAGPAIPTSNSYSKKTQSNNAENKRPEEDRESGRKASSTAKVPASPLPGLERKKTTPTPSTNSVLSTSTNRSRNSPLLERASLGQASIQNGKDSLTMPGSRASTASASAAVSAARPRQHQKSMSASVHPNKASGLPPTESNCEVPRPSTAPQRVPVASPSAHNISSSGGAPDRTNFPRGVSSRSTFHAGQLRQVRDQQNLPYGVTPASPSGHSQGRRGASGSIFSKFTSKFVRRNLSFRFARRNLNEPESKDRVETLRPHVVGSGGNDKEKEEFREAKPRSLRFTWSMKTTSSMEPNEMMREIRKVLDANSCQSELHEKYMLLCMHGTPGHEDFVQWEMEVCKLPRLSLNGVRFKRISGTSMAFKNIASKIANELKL

Compound | tested on | test | test system | conditions | how to read | measurement | result
CCC(=O)NS(=O)(=O)c1ccc(-c2c(-c3ccccc3)noc2C)cc1 | COS-7 | – | – | 50 µM, 24 h, 0.1% DMSO, unit not given | baseline: vehicle control | necrotic cells | 0.6 ± 0.12
COc1cc(-c2cncc3c2CN(C)Cc2cc(N4CCNCC4)ccc2-3)cc(OC)c1OC | Calcium/calmodulin-dependent protein kinase type II subunit alpha (CAMK2A, Homo sapiens, UniProt Q9UQM7) | kinase activity | – | 1 µM, human enzyme, together with: ATP 10 µM | baseline: DMSO control | remaining activity | 106%
O=C(NC1CCC1)c1ccc2nc(-c3cccc(NS(=O)(=O)NCCN4CCCCC4)c3)cn2c1 | Activin receptor type-2B (ACVR2B, Homo sapiens, UniProt Q13705) | enzyme activity | – | 10 µM | – | remaining activity | 100%
O=C(O)c1ccc(Nc2ncc3c(n2)-c2ccc(Cl)cc2C(c2c(F)cccc2F)=NC3)cc1 | MKK4(m) | kinase activity | – | 1 µM | – | remaining activity | 120%
CNCC(=O)O | Sodium- and chloride-dependent glycine transporter 1 (SLC6A9, Homo sapiens, UniProt P48067) | [3H]glycine uptake, inhibitor | HEK293F | 2000 µM, together with: methyl-β-cyclodextrin 3.5 mg/mL | baseline: untreated | remaining activity | 60.6%
CC(C)C[C@H](NC(=O)C[C@H](O)[C@H](CC(C)C)NC(=O)[C@H](Cc1c[nH]cn1)NC(=O)CNC(=O)[C@@H](NC(=O)[C@H](C)NC(=O)[C@H](Cc1c[nH]c2ccccc12)NC(=O)[C@H](CCC(N)=O)NC(=O)[C@@H](Cc1ccccc1)NC(=O)COCCOCCNC(=O)CCC(C(=O)O)N1CCN(CC(=O)O)CCN(CC(=O)O)CCN(CC(=O)O)CC1)C(C)C)C(N)=O (some centres unmarked) [lutetium-177 labelled] | – | – | BALB/c nu/nu mice, spleen | intravenous, 50 pmol, 1 h, together with: PA 300 µg | – | tissue uptake | 0.4 ± 0.1 %ID/g
Cc1cc(Nc2cc(N3CCN(C)CC3)nc(Sc3ccc(NC(=O)C4CC4)cc3)n2)[nH]n1 | RIPK2 | kinase activity, KinaseProfiler | – | 0.03 µM, species human | baseline: control | remaining activity | 98%
Cn1cc(-c2ccc(-c3cncc(Cl)c3N3CCC4(CCNC4=O)CC3)cc2)cn1 | COLO 205 | microarray, item: PLAUR | – | concentration not given, 2 h, gene set uPAR | baseline: untreated cells | fold change in expression | 2.02
CNc1ncc2c(/C=C/C(=O)N3CCC(OC)CC3)nn(Cc3cccc(C(F)(F)F)c3)c2n1 | Dual specificity mitogen-activated protein kinase kinase 5 (MAP2K5, Homo sapiens, UniProt Q13163) | kinase activity, inhibitor | – | 1 µM | baseline: untreated control | remaining activity | 107%
COc1cc(F)ccc1-c1ncnc(Nc2cccc(C[S@](C)(=N)=O)c2)n1 | Ephrin type-A receptor 4 (EPHA4, Homo sapiens, UniProt P54764) | kinase activity | – | 10 µM, together with: 10 µM ATP | – | remaining activity | 95%
O=C1NC(=O)/C(=C/c2ccc(-c3ccc(F)cc3O)o2)S1 | Serine/threonine-protein kinase MARK2 (MARK2, Homo sapiens, UniProt Q7KZI7) | enzyme activity | – | 10 µM | – | remaining activity | 90%
COc1c(O[C@@H]2O[C@H](CO)[C@@H](O)[C@H](O)[C@H]2O)c(C)cc2c1C(=O)c1c(O)cccc1C2=O | HepaRG co-cultured with HK-2 | MTT | – | 266.67 µM, 24 h | baseline: untreated control | cell viability | 23 ± 2.88%
COc1cccc2c(Nc3ccc4[nH]c(C(=O)N/N=C/c5ccc(SC)cc5)cc4c3)cc(C)nc12 | COS-7 | – | – | 10 µM, 24 h, 0.1% DMSO, unit not given | baseline: vehicle control | confluence | 0.96 ± 0.05
COc1cc(N2CCN(C)CC2)ccc1Nc1nc(N)n(C(=S)NCc2c(Cl)cccc2Cl)n1 | RIPK2 | enzyme activity | – | 10 µM | baseline: control | remaining activity | 11%
C[C@@H]1CC[C@@]2(OC1)O[C@H]1C[C@H]3[C@@H]4CC[C@H]5C[C@@H](O)CC[C@]5(C)[C@H]4CC(=O)[C@]3(C)[C@H]1[C@@H]2C | UDP-glucuronosyltransferase 1A4 (UGT1A4, Homo sapiens, UniProt P22310) | glucuronidation, inhibitor | human liver microsomes | 10 µM, together with: probe substrate 0.5 µM | baseline: no inhibitor | remaining activity | ~25%
COc1cc(Nc2ncc3c(n2)-c2ccc(Cl)cc2C(c2c(F)cccc2OC)=NC3)ccc1C(=O)O | PIM1 | kinase activity | – | 1 µM | – | remaining activity | 100%
C=CC(=O)N1CCC[C@@H](n2nc(-c3ccc(Oc4ccccc4)cc3)c3c(N)ncnc32)C1 | Glutaryl-CoA dehydrogenase, mitochondrial (Homo sapiens, UniProt Q92947) | – | – | 0.1 µM | – | remaining activity | 115%
